Measurements of several laboratories.
Numbers after ± are the reported error.

Compound	cell line	test	setting	viability
CCOP(=O)(CC(=O)Nc1ccc(S(=O)(=O)N(CC(N)=O)c2ccc(N(CC(N)=O)S(=O)(=O)c3ccc(OC)cc3)c3ccccc23)cc1)OCC	mouse primary cortical neurons	CCK-8	up to 100 µM, 24 h	not toxic
CC(C)=CCc1c(O)ccc2c1O[C@H]1c3cc4c(cc3OC[C@@H]21)OC(C)(C)C=C4	3T3-L1	MTT	concentration not given	36.9 ± 0.8%
C=CC1=C(C)C2=NC1=Cc1c(C)c(CCC(=O)O)c3[n]1[Co][n]1c(c(C)c(C=C)c1=C2)=CC1=NC(=C3)C(CCC(=O)O)=C1C	Huh5.15 replicon cells	MTT	10 or 20 µM, 24 and 48 h	no effect
C[C@H]1[C@@H](O)CC[C@@H]2[C@]1(C)CC[C@H]1[C@@]2(C)CC[C@@]2(C)[C@@H]3CC(C)(C)CC[C@]3(C)CC[C@]12C	3T3-L1	MTT	concentration not given, 72 h, together with: insulin 30 nM	102%
Cc1cc(C)cc(C(=O)Nc2cccc(S(N)(=O)=O)c2)c1	BHK-21	cell growth or viability, MTT	100 µM, serum-free	34%
CC1(C)CC[C@]2(C)CC[C@]3(C)[C@H]([C@@H](O)C[C@@H]4[C@@]5(C)CCCC(C)(C)[C@@H]5CC[C@]43C)[C@@H]2C1	3T3-L1	MTT	concentration not given, 72 h, together with: insulin 30 nM	101%
O=C1NN=C(c2ccccc2)/C1=N/Nc1ccccc1	WISH	cell growth or viability, MTT	100 µM	~78%
CC(C)=CCc1cc2c(cc1O)OC[C@H]1c3ccc(O)c(CC=C(C)C)c3O[C@@H]21	3T3-L1	MTT	concentration not given	78.3 ± 0.7%
COc1cc2oc3cc(O)c(OC)c(CC=C(C)C)c3c(=O)c2c(O)c1CC=C(C)C	3T3-L1	MTT	concentration not given, 72 h, together with: insulin 30 nM	101%
COc1c(CC=C(C)C)c(O)cc2c1-c1oc3c(CC=C(C)C)c(O)ccc3c1CO2	3T3-L1	MTT	concentration not given	54.1 ± 0.9%
O=C1/C(=C/c2ccc3c(c2)OCCO3)SC(=S)N1[C@@H]1O[C@H](CO)[C@@H](O)[C@H](O)[C@H]1O	WISH	cell growth or viability, MTT	100 µM, 48 h	~75%
COc1ccc(C(=O)Nc2cccc(S(N)(=O)=O)c2)cc1OC	BHK-21	cell growth or viability, MTT	100 µM, serum-free	98%
COc1ccc([C@@H]2CC(=O)c3c(O)cc(O[C@@H]4O[C@H](CO[C@@H]5O[C@@H](C)[C@H](O)[C@@H](O)[C@H]5O)[C@@H](O)[C@H](O)[C@H]4O)cc3O2)cc1O	MRC5	cell growth or viability, MTS	50 µg/mL, 72 h	89.4%
COc1ccc2c(c1CC=C(C)C)O[C@H]1c3cc(CC=C(C)C)c(O)cc3OC[C@@H]21	3T3-L1	MTT	concentration not given	85.2 ± 1.8%

Excerpt of the above:
Compound	cell line	test	setting	viability
COc1ccc(C(=O)Nc2cccc(S(N)(=O)=O)c2)cc1OC	BHK-21	cell growth or viability, MTT	100 µM, serum-free	98%
COc1ccc([C@@H]2CC(=O)c3c(O)cc(O[C@@H]4O[C@H](CO[C@@H]5O[C@@H](C)[C@H](O)[C@@H](O)[C@H]5O)[C@@H](O)[C@H](O)[C@H]4O)cc3O2)cc1O	MRC5	cell growth or viability, MTS	50 µg/mL, 72 h	89.4%
